Assay results pooled from the literature.
Each line is one published result; not all experiments were run side by side. “And” joins repeats or separate records; there may be more than shown. ≈ marks a conversion by molar mass, not a printed value.

O=S(=O)(O)c1c2ccccc2c(-c2c3nc(c(-c4c5ccccc5c(S(=O)(=O)O)c5ccccc45)c4ccc([nH]4)c(-c4c5ccccc5c(S(=O)(=O)O)c5ccccc45)c4nc(c(-c5c6ccccc6c(S(=O)(=O)O)c6ccccc56)c5ccc2[nH]5)C=C4)C=C3)c2ccccc12 — inhibition (vaccinia virus; viral replication; CV-1, WR; 50 µg/mL, 16 h): 96%
O=C(O)c1ncn(CCO)c1C(=O)O — IC90 (Mammarenavirus lassaense; viral replication; Vero; 48 h): > 50 µg/mL
O=[N+]([O-])c1ccc(-n2nc(-c3ccccc3)cc2-c2ccc(F)cc2)c([N+](=O)[O-])c1 — inhibition (Japanese encephalitis virus; viral replication, measured: viral RNA; SA14-14-2, mice, spleen; ip, 100 mg/kg/day, 120 h): 40.9%
COC(=O)c1ncn(CCO)c1C(=O)OC — IC90 (Mammarenavirus lassaense; viral replication; Vero; 48 h): > 50 µg/mL
CC(C)=CCc1c(O)ccc(-c2coc3cc(O)cc(O)c3c2=O)c1O — selectivity ratio (SARS-CoV-2 trVLP; Caco-2-N; baseline: CC50 over EC50): > 5
C#CCN(Cc1ccc2[nH]c(C)nc(=O)c2c1)c1ccc(C(=O)N[C@@H](CCC(=O)O)C(=O)O)cc1 — MIC (Mycobacterium tuberculosis; pptH knockout): > 100 µM
CC(C)c1ccc2c(c1)CC[C@H]1[C@](C)(C(=O)OCC#CCN3CCCC3)CCC[C@]21C — infected cells (SARS-CoV-2 pseudovirus; BHK-21-hACE2; 20 µM): decreased
COC(=O)c1ncn(C2OC(COC(=O)c3ccccc3)C(OC(=O)c3ccccc3)C2OC(=O)c2ccccc2)c1C(=O)OC (stereo not shown) — IC50 (Mammarenavirus lassaense; viral replication, inhibitor; Vero; 48 h): 46 µg/mL
O=C(C=Cc1ccc(O)c(O)c1)OC1CC(O)(C(=O)O)CC(OC(=O)C=Cc2ccc(O)c(O)c2)C1O (stereo not shown) — inhibition (Severe acute respiratory syndrome coronavirus 2; cytopathic effect; Vero C1008; 50 µM): 0%
COc1ccc(C2=[N+]([O-])c3ccccc3N3CCCN=C23)cc1 — MIC90 (Clostridium perfringens): 32 µg/mL (≈ 104 µM)
CC[C@@H](C)[C@@H](NC(=O)[C@@H](CCCCN)NC(=O)[C@@H](CCCCN)NC(=O)[C@@H](CC(C)C)NC(=O)[C@@H](Cc1c[nH]c2ccccc12)NC(=O)CN)C(=O)NCC(=O)N[C@H](CCCCN)C(=O)N[C@H](CCCCN)C(=O)N[C@@H](C(=O)N[C@H](CCC(=O)O)C(=O)N[C@H](CCCNC(=N)N)C(=O)N[C@@H](C(=O)NCC(=O)N[C@H](CCC(N)=O)C(=O)N[C@H](Cc1c[nH]cn1)C(=O)N[C@@H](C(=O)N[C@H](CCCNC(=N)N)C(=O)N[C@H](CC(=O)O)C(=O)N[C@H](C)C(=O)N[C@@H](C(=O)N[C@@H](C(=O)N[C@H](CCC(N)=O)C(=O)N[C@@H](C(=O)N[C@@H](C(=O)NCC(=O)N[C@@H](C(=O)N[C@H](C)C(=O)N[C@H](CCC(N)=O)C(=O)N[C@H](CCC(N)=O)C(=O)N[C@H](C)C(=O)N[C@H](C)C(=O)N[C@H](CC(N)=O)C(=O)N[C@@H](C(=O)N[C@H](C)C(=O)N[C@H](C)C(=O)N[C@@H](C(=O)N[C@H](CC(C)C)C(=O)N[C@H](CCCCN)C(N)=O)[C@H](C)O)C(C)C)C(C)C)[C@H](C)CC)[C@H](C)O)[C@H](C)CC)[C@H](C)O)[C@H](C)O)C(C)C)[C@H](C)CC — MIC (Escherichia coli; isolate RKI 6 A-6, CAMHB): > 1020 mg/L
[O-][N+]1=C(c2ccsc2)C2=NCCCN2c2ccccc21 — MIC50 (Clostridium perfringens; microbial growth): 4 µg/mL (≈ 14.1 µM)
COC(=O)c1cc2c(=O)n3ccccc3nc2n1Cc1ccccc1 — inhibition (Severe acute respiratory syndrome coronavirus 2; viral replication; Vero; 0.1 µM): 57.3%
Cn1nc(-c2ccc(C(F)(F)F)cc2)nc2c(=O)n(C)c(=O)nc1-2 — inhibition of cytopathic effect (SARS-CoV-2 USA_WA1/2020; Vero E6; concentration not given, 72 h): 51.4%
N#Cc1ncn(C2OC(CO)C(O)C2O)c1C#N (stereo not shown) — IC90 (Mammarenavirus lassaense; viral replication; Vero; 48 h): > 50 µg/mL
CN1CCN(C(=O)N[C@@H](Cc2ccccc2)C(=O)N[C@H](/C=C/S(=O)(=O)c2ccccc2)CCc2ccccc2)CC1 — IC50 (Lassa virus; pseudovirus entry; HEK-293T): > 100 nM
CC(C)CC(C(=O)N1CC2(CC1C#N)C(=O)Nc1ccccc12)N(C)C(=O)c1cc2c(F)cc(F)c(F)c2[nH]1 (stereo not shown) — inhibition (SARS-CoV-2; viral replication, infectious virus; Vero E6; 0.03333 µM): 98.3%
CC(=O)OCCOCn1cnc(C#N)c1C#N — IC50 (Severe acute respiratory syndrome coronavirus; viral replication; Vero; 48 h): 15 µg/mL
C[N+]1=C2C(c3ccc(Cl)cc3)=[N+]([O-])c3ccccc3N2CCC1 — MIC (Clostridium butyricum): 4 mg/L
O=S(=O)(Nc1ccccc1)c1ccc(N=C=S)cc1 — mRNA level (Escherichia coli; measured: ler, eae, stx2a; EHEC O157:H7; concentration not given): decreased
C[N+]1=C2C(c3ccccc3)=[N+]([O-])c3ccccc3N2CCC1 — MIC90 (Clostridium perfringens): 32 µg/mL
Cc1ccc(NS(=O)(=O)c2c(C(=O)N3CCCCCC3)c(C)n(C)c2C)c(Cl)c1 — relative infection (Monkeypox virus; Vero C1008, wild type; 0.37 µM, 72 h; baseline: untreated): 0% and 1%
